Results gathered from unrelated publications.
Parts stem from different laboratories: compare values within a part only. Positions count from the first letter of the parent shown.

Block 1 — target: CCND3, cyclin fold, Cln2 fusion (human); technique: yeast growth competition, sequencing; sample: yeast; notes: weak parent motif; relative to: not given; direction: higher = stronger binding
Starting sequence: CDC25A docking peptide (human); PPHRRRLLFACSP
Variant | normalised enrichment score
P1E | 0.0882
P13G | 0.145
R5S | 0.101
C11S | 0.129
R4V | 0.21
R5H | 0.164
A10K | 0.105
S12I | 0.14
P2N | 0.162
P2F | 0.157
F9G | 0.206
A10M | 0.15
R4C | 0.163
L7D | 0.0817
L7S | 0.0789
R6N | 0.171
C11T | 0.043
L8M | 0.16
C11H | 0.11
A10T | 0.138
P2K | 0.119
R4W | 0.145
L8N | 0.125
L8F | 0.156
R5T | 0.125

Block 2 — technique: protein binding microarray; form: double-stranded DNA, one strand shown; sample: in vitro; concentration: not given; relative to: not given; direction: higher = stronger binding
Target: Histone acetyltransferase KAT6A, winged helix 2, GST fusion (KAT6A, Homo sapiens, UniProt Q92794, residues 85-181)
Notes: 8-mer, flanks averaged, mean of 2 arrays, mostly near background
Target sequence (chain): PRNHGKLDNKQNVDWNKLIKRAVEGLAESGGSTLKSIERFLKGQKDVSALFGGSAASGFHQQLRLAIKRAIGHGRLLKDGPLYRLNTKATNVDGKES
Strand | E-score
ACTGTCGC | 0.0534
AACGTCCC | -0.0962
CACGGTAA | -0.0962
CACCTTTC | -0.167
AACGACAG | -0.0393
GGCTCGAC | 0.105
ATTAGGGG | -0.0652
AACCTAAC | 0.048
AACACTCG | 0.0846
AGCATGAG | -0.0468
ACTTAACT | -0.0854
AGGTGTGC | -0.104
AGGATTAG | 0.0588
GATGTCGC | -0.0757
CCGCGCAC | 0.188
CGCGGTCC | 0.11
GGATACTA | 0.0187
CAGAATAC | -0.166
CCTGCTTC | 0.196
CGTAGGGC | -0.0705
GCTCCCTA | -0.124
ACACAGTA | -0.0973
GAAATATA | 0.0674
CGCCTGAA | 0.2
AGTTGACA | 0.0248

Block 3 — technique: RNA Bind-n-Seq; form: RNA; sample: in vitro; concentration: 365 nM; relative to: no-protein control; direction: higher = stronger binding
Target: RNA binding protein fox-1 homolog 2, RRM domain, GST-SBP tag (RBFOX2, Homo sapiens, UniProt O43251-10, residues 100-194)
Notes: natural RNA segment, single round, ends assumed
All sequences stand within: GGGAGUUCUACAGUCCGACGAUC … UGGAAUUCUCGGGUGCCAA
Residues (chain): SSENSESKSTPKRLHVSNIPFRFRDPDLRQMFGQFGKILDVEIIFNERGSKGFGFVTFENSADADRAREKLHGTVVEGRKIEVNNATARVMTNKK
Strand | RBNS enrichment (R)
UCCAAAGACCCCACCCCUCUGCUGGUCCUGCCAACGUGUUGGUGCUAUAAGCUGCUUCAGAUAUAAAAUUGGUUUAUCUAUAAUGUUUGUUCAUUUAAUAGCUUCUAAAA | 0.536
AACAACAAAAACAACAACAAAACAAACGUUUACAUCCUAGGAGGGAAAAAAAACAAAAGUCUUUGUAAUUUUGCUUAAAUUUGCCAGACACAGAUUUAGAAAUACAUUCU | 0.488
GGUUUUUCUGUUAGCUUGGACCACUGCCUCAUCAGACAAUAUCAGCAGAUGUGCCUCAGUUUCCCCAUCAGACACCUACCUCACCAGGGCAUUGUGGCAGAAUUUUAGGA | 0.592
AUGCCUACCUACUGAGGCGCCUUCUCUUUUUAUUCUUGAGCCAAUGAGAUAUCAGUGUGUUUAUUAAUAAGGAUUGCAAUAGUAUAGUGCUUAAUAUGUGCCAGGCAUAG | 0.248
CAUCCGAUUAGCCCAACUCUGUCUCCCAGGCCCCCUGCUGGGAAACCCAUACCCAGCAUCCCUCCCCUGCCCUGGCCCUCGGCUGUGUAUUUAUAGAUGGAAAUAUACUU | 0.626
AAUCUUUUACCUUUUAAACAACCAGGAUAGAGAACCUAUUGGAGUUUGCAUUGUUGAUGACAGGUUCACAAUAAAGUGACGUUCUGGUGGAGGUAGAGUGAAAUGUUUUU | 0.416
ACUUUUUCUAUAAGAAGAAAAAUUAAGACCACUUAUUUGAAAACAAAGAUGAAGUCUCACCUUCCAGUUUGCUUUCUCAUUAGUUUUUUCCAAAGUAAGUUAUUGAAGCU | 0.349
AGAAACCCCUCCACAUCCCCGAGGCAGCCCGAUGGCUUCCAGGGUGGCUCGGGCAAGUGGAAGCACGUGGAGUCAGACAGACCUAAGUCCCAGGCCCAGAUUAGCCACUC | 7.19
UAGAUUAGGAUUAAAGUGGGUUUAAUCCAUUUUUAUAGCUGUAUGAAUUUUUCUAAACAGGAACAGCCAUUUGCAAAAUGGGUUUUCAUAGUGAUUGCAUCAAUUAUAAC | 1.34
AGGGCAUGGCAAUGGCCUCAUCCUUAAAAUGUUAUUUCUACUCUCACCCUGAGAGACCUGGGCAGCCAGGCUUUCCCCAGGCUGCCCGCCCUGAGCCAGGUGCCACCACU | 0.182
AAUCUGUUUGUGUUUCUGAGCCUGGUUCCUCCAAGACACAGGAAUGAAGUGGGGCCACAGAUUUAGAAUCCAUUUAAGUUUCCCUGUUGUGUGUCUGUGUUGACCCUGGG | 0.916
CAUCAGUGUCUCUGCUGUACUGGAAGCCACCUCUGGUUUUCCUCUGAAAUAUUAAAAGACAGAAUCCAAAGAACGCCUUUAACUCUAGUCUUAUUAGGAUGAUUUUCUAU | 0.411

Block 4 — technique: protein-binding microarray; form: double-stranded DNA, one strand shown; sample: in vitro; concentration: not given; direction: higher = stronger binding
Target: Protein C-ets-1 (ETS1, Homo sapiens, UniProt P14921, residues 1-441, K379A, full length assumed)
Notes: k-mer, scored over probes, only values ≥0.25
Target sequence (chain): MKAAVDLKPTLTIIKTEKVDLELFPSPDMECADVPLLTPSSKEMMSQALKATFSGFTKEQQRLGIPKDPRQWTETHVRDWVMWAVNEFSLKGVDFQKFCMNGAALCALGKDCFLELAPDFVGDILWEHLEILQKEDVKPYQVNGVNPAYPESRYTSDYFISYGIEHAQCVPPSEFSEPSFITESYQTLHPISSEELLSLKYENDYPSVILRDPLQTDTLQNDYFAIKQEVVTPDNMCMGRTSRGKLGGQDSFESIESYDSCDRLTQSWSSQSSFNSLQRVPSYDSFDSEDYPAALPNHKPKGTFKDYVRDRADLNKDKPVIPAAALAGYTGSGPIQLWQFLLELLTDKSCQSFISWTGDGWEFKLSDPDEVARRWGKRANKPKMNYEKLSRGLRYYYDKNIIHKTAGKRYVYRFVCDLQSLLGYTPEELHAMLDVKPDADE
Strand | E-score
CAGACCGG | 0.413
CGCCGGTA | 0.432
TCGGTAAA | 0.342
ACGCGTCG | 0.282
ATATGTCG | 0.293
CCGGGACC | 0.342
CATCCGGA | 0.302
CCGACATA | 0.252
GTGTCATA | 0.307
CGACACGA | 0.355
CCGGCGTA | 0.27
CGGTACTA | 0.346
ATCATATA | 0.278
TACTATAA | 0.25
ACCCGGTC | 0.375
ACATATAC | 0.313
AGCGACAC | 0.274
ACCGGACC | 0.295
CTGTCGGA | 0.292
GCACCGGA | 0.392
CACCGGGG | 0.408
GACCGTAC | 0.255
ACCGGTAA | 0.462
ATAATTAT | 0.26
CCCCGCCC | 0.367

Block 5 — technique: RNA Bind-n-Seq; form: RNA; sample: in vitro; concentration: 1 µM; notes: whole 134-nt RNA, ends assumed; together with: 150 mM KCl; relative to: input library; direction: higher = stronger binding
Target: Ras GTPase-activating protein-binding protein 1, C-terminal RGG region (G3BP1, Homo sapiens, UniProt Q13283)
UniProt Q13283, sequence (whole entry, looked up): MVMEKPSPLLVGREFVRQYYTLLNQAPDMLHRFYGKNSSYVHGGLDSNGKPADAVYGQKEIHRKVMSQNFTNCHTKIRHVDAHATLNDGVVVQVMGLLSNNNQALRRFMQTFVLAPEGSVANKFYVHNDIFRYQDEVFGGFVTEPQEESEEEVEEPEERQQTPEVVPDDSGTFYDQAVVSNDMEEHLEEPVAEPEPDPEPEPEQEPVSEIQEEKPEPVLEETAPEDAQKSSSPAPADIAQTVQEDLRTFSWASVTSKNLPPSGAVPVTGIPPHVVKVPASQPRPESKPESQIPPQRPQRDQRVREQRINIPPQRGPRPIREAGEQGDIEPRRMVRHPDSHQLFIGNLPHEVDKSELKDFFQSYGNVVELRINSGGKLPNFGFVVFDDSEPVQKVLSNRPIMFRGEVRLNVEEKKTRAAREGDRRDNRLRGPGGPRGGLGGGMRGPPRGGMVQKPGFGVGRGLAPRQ
All sequences stand within: GGGAGUUCUACAGUCCGACGAUC … UGGAAUUCUCGGGUGUCAAGG
Strand | log2 enrichment
GCAGGAAGUAAAAACAAAUGGAAAUGCUUCGGAUAGUGGCAGGGGUGGGGGUUAAAAAGGAAAGGGUGGGAUGGGAGUGGGUAAAGAGUU | 1.92
CCUCAAGUCCUGUGCUACACAUCGUAUGUACCGAAUCGUGUGUGUGUGUGUGUAAAGUAUUAUGUUACGCCGUUCGGAUCUGCACUUCCA | 0.282
UGGGAGGUGGAUUUUGUUUAUUUUUUUAGCUCAUUUCCAGGGGUGGGAAUUUUUUUUUAAUAUGUGUCAUGAAUAAAGUUAUUUUUGAAA | 3.33
UUAGGUGGCUCCAGGAUGUAUUUAACGUGCCCUUGGUCAUCCAGAUGACGGAUGACGAGAAGUAUCUGUGGAAGGACCUGACCCUGGACC | -1.06
UAACUUUAGAGGAGGAUCUGAUGGAUAUGGCACUGGACGUGGAUUUGGGGAUGGCUAUAAUGGGUAUGGAGGAGGACCUGGAGGUGGCAA | -0.888
GCAGGAAGUAAAAACAAAUGGAAAUGCUUCGGAUAGUGGCAGGGGUGGGGGUUGCUAAGGAAAGGGUGGGAUGGGAGUGGAUAAAGAGUU | 1.47
CCUGUGCUACACAUCGUAUGUACCGAAUCGGGUUUUUUUGGUUUUUUUGGUUUUUUUGGGAAAGUAUUAUGUUACGCCGUUCGGAUCUGC | -1.7
GUCCUGUGCUACACAUCGUAUGUACCGAAUCGGGGAAAGGGGAAAAAGGGGAAAGGGGAAAGUAUUAUGUUACGCCGUUCGGAUCUGCAC | 3.13
CUCAAGUCCUGUGCUACACAUCGUAUGUACCGAAUCGGGGUGGGGUGGGGUGGAAAGUAUUAUGUUACGCCGUUCGGAUCUGCACUUCCA | 1.39
UCAAGUCCUGUGCUACACAUCGUAUGUACCGAAUCGGGUGGGAGGGAAAAAGGGAAAGUAUUAUGUUACGCCGUUCGGAUCUGCACUUCC | 1.32
AAGUCCUGUGCUACACAUCGUAUGUACCGAAUCGGUUUUGGGGUUUUGGUUUUGGGAAAGUAUUAUGUUACGCCGUUCGGAUCUGCACUU | -1.34
GCAGGAAGUAAAAACAAAUGGAAAUGCUUCGGAUAGUGGCAGGGGUGGGGGUUGCUAAGGAAAGGGUGAAAUGGGAGUGGGUAAAGAGUU | 1.63
GCAGGAAGUAAAAACAAAUGGAAAUUCUUCGGAUAGUGGCAGGGGUGGGGGUUGCUAAGGAAAGGGUGGGAUGGGAGUGGGUAAAGAGUU | 1.62
ACCAUGCAGGUGGGCAUCUUUGGGAAUUGGGGCAAGGGGGGGAUAGGGAGGGGGGUAACACUUUGGGAACAGGUGGUCCCAGGUCGUUUC | -0.844

Repeated from above (block 2):
Strand | E-score
AGCATGAG | -0.0468
ACTTAACT | -0.0854
AGGTGTGC | -0.104
AGGATTAG | 0.0588
GATGTCGC | -0.0757
CCGCGCAC | 0.188
CGCGGTCC | 0.11
GGATACTA | 0.0187
CAGAATAC | -0.166
CCTGCTTC | 0.196
CGTAGGGC | -0.0705
GCTCCCTA | -0.124
ACACAGTA | -0.0973
